# Experimental data gathered from unrelated publications.
# Numbers after ± are the reported error.
SMILES,test,system,conditions,scale,Cmax
CC(C)[C@@H](CS(=O)(=O)C(C)C)N1C(=O)[C@@](C)(CC(=O)O)C[C@H](c2cccc(Cl)c2)[C@H]1c1ccc(Cl)cc1,,"human, plasma","oral, 60 mg, new tablet, fasted, geometric LS mean",,0.431 µg/mL
CC(C)NC[C@@H](C(=O)N1CCN(c2ncnc3c2[C@H](C)C[C@H]3O)CC1)c1ccc(Cl)cc1,,"human, normal hepatic function, plasma","oral, 100 mg single dose, reference group versus Moderate",baseline: NCI classification,0.049 µg/mL
CCOC(=O)C1=C[C@@H](OC(CC)CC)[C@H](NC(C)=O)[C@@H](N)C1,,"healthy Indian human, plasma","oral, 75 mg single, test capsule fed",,0.032 ± 0.009 µg/mL
CS(=O)(=O)n1cc2c(n1)CN([C@H]1CO[C@H](c3cc(F)ccc3F)[C@@H](N)C1)C2,,"healthy male human, plasma","oral, 10 mg once weekly, day 1, fasted, geometric mean",,0.184 µM
O=C(O)CC[C@H]1CC[C@@](c2cc(F)ccc2F)(S(=O)(=O)c2ccc(Cl)cc2)CC1,,"human children, plasma","oral, 1000 mg/m^2 weekly",,75.2 µg/mL
COc1ccnc(C[S+]([O-])c2nc3ccc(OC(F)F)cc3[nH]2)c1OC (stereo not drawn),,"human, CYP2C19 poor metabolizers, plasma","oral, 40 mg/day, day 1",,5.94 ± 2.45 µg/mL
CN(C)CC(c1ccc(O)cc1)C1(O)CCCCC1 (stereo not drawn),,"human, plasma","oral, 225 mg/day, day 15",,0.421 µg/mL
O=C(Cc1cccc(OC(F)(F)F)c1)Nc1ccc(CCCCc2nnc(NC(=O)Cc3ccccn3)s2)nn1,,"human patients, plasma","oral, 600 mg three times daily fasted, cycle 1 day 15 steady state",,1.14 µg/mL
Cc1cc(C)c2c(c1)[C@@H](N(Cc1cc(C(F)(F)F)cc(C(F)(F)F)c1)c1nnn(C)n1)CCCN2C[C@H]1CC[C@H](C(=O)O)CC1,,"human, plasma","oral, 300 mg once daily, steady state, geometric mean",,0.744 µg/mL
CO[C@H]1C[C@@H]2CC[C@@H](C)[C@@](O)(O2)C(=O)C(=O)N2CCCC[C@H]2C(=O)O[C@H]([C@H](C)C[C@@H]2CC[C@@H](OCCO)[C@H](OC)C2)CC(=O)[C@H](C)/C=C(\C)[C@@H](O)[C@@H](OC)C(=O)[C@H](C)C[C@H](C)/C=C/C=C/C=C/1C,,"human, plasma","oral, 30 mg, added: sunitinib 50 mg daily",,0.121 µg/mL
CC(C)(C)OC[C@@H]1C(=O)NCCN1C(=O)C[C@H](N)Cc1cc(F)c(F)cc1F,,human,"20 mg once daily, steady state, day 10",,0.031 ± 0.0061 µg/mL
CC[C@@]1(O)C(=O)OCc2c1cc1n(c2=O)Cc2cc3c(CN(C)C)c(O)ccc3nc2-1,,"human patients, plasma","oral, 4 mg, day 15, geometric mean, added: pazopanib 800 mg",,0.0165 µg/mL
CCCNS(=O)(=O)Nc1ncnc(OCCOc2ncc(Br)cn2)c1-c1ccc(Br)cc1,,human,"oral, 10 mg, free combination, fasted, geometric mean, added: US-sourced tadalafil 40 mg",,0.168 µg/mL
C[C@@H]1COC(Nc2ccc3ncnc(Nc4ccc(OCc5nccs5)c(Cl)c4)c3c2)=N1,,"human patients, plasma","oral, 400 mg intermittent, cycle 1",,4.67 ± 3.01 µg/mL
CC#CC(=O)N1CC[C@@H](n2c(=O)n(-c3ccc(Oc4ccccc4)cc3)c3c(N)ncnc32)C1,,"human, fasting, plasma","oral, 480 mg once daily, cycle 1 day 28",,1.94 µg/mL
C=C(C)[C@@H]1CC[C@]2(NCCN3CCS(=O)(=O)CC3)CC[C@]3(C)[C@H](CC[C@@H]4[C@@]5(C)CC=C(C6=CC[C@@](CF)(C(=O)O)CC6)C(C)(C)[C@@H]5CC[C@]43C)[C@@H]12,,healthy human volunteers,"oral, 200 mg, tablet, moderate-fat meal, arithmetic mean",,1.43 µg/mL
Nc1ccc(-c2nc([C@H]3CCc4cc(-c5cc(Cl)ccc5-n5cnnn5)cc(=O)n43)c(F)[nH]2)c(F)n1,,"human, plasma","oral, 150 mg once daily, fed, day 14",,2 µg/mL
COc1cc(F)c(F)c(Nc2ccc(I)cc2F)c1NS(=O)(=O)C1(C[C@H](O)CO)CC1,,"human patients, plasma","oral, 50 mg twice daily, cycle 1 day 15, added: copanlisib 0.4 mg/kg intravenous weekly",,1.08 µg/mL
O=C([O-])CCCCCCCNC(=O)c1ccccc1O.[Na+],,"human, normal hepatic function, plasma","oral, dose not given, day 10, geometric mean",,1.31 µg/mL
CN(Cc1nc2c(N)nc(N)nc2[nH]c1=O)c1ccc(C(=O)N[C@@H](CCC(=O)O)C(=O)O)cc1,,"human, plasma","oral, 20 mg methotrexate, day 1, alone, arithmetic mean",,0.0833 µg/mL
CCN1CCN(Cc2ccc(Nc3ncc(F)c(-c4cc(F)c5nc(C)n(C(C)C)c5c4)n3)nc2)CC1,,"human patients, plasma","oral, 200 mg single, geometric mean",,0.141 µg/mL
CCCCC1(CCCC)CN(c2ccccc2)c2cc(SC)c(OCC(=O)N[C@@H](C(=O)NCC(=O)O)c3ccccc3)cc2S(=O)(=O)C1,LC-MS/MS,"human, plasma","oral, 15 mg, single dose, fasted",,0.00181 µg/mL
Cc1ccc(NC(=O)c2ccc(CN3CCN(C)CC3)cc2)cc1Nc1nccc(-c2cncc(-c3oncc3C)c2)n1,,"older healthy human adults, plasma","oral, 12.5 mg single dose, fed, mean",,0.447 µg/mL
COc1cc2nccc(Oc3ccc(NC(=O)NC4CC4)c(Cl)c3)c2cc1C(N)=O,,"human, plasma","oral, 5 mg, geometric mean, added: ketoconazole 400 mg/day",,0.0512 µg/mL
CC1(C)CCC(CN2CCN(c3ccc(C(=O)NS(=O)(=O)c4ccc(NCC5CCOCC5)c([N+](=O)[O-])c4)c(Oc4cnc5[nH]ccc5c4)c3)CC2)=C(c2ccc(Cl)cc2)C1,,"human, plasma","oral, 600 mg, steady state cohort B1.2, added: idasanutlin 150 mg",,1.47 µg/mL
Nc1ncc(-c2cnn(CCO)c2)c2scc(-c3ccc(NC(=O)Nc4cccc(F)c4)cc3)c12,,"human patients, plasma","oral, 690 mg once weekly, first dose",,0.839 µg/mL
Cc1nc(-c2ccc(OCC(C)C)c(C#N)c2)sc1C(=O)O,,"human male, plasma","oral, 40 mg once daily, day 7 or 21, arithmetic mean",,0.798 µg/mL
Cc1ccc(C(=O)NC2CC2)cc1-n1ncc(C(=O)c2cccc(C#N)c2)c1N,,healthy human,"oral, dose not given, geometric mean, added: itraconazole 200 mg daily days 1-14",,0.11 µg/mL
CC(C)(Sc1ccncc1-c1ccc(C#N)c2ccccc12)C(=O)O,,"human, plasma","oral, 15 mg, added: febuxostat 80 mg",,0.0204 µg/mL
O=C(CCCCCCC(=O)Nc1ccccc1)NO,,"human, serum","oral, 300 mg three times daily, 3 days, median, added: idarubicin",,0.998 µM
O=C(c1ccc(OCCN2CCCCC2)cc1)c1c(-c2ccc(O)cc2)sc2cc(O)ccc12,,"healthy humans, plasma","oral, 60 mg, added: chronic green tea",,0.00014 µM
C=CC(=O)Nc1cc(Nc2ncc(C(=O)OC(C)C)c(-c3cn(C)c4ccccc34)n2)c(OC)cc1N(C)CCN(C)C,,"human, fasted","oral, 120 mg single dose, geometric mean",,0.0258 µg/mL
NS(=O)(=O)OC[C@@H]1C[C@@H](n2ccc3c(N[C@H]4CCc5ccccc54)ncnc32)C[C@@H]1O,,human,"intravenous, 8 mg/m^2 single dose, day 8, added: itraconazole",,0.0668 µg/mL
COc1cc(Nc2ncc3c(n2)-c2ccc(Cl)cc2C(c2c(F)cccc2OC)=NC3)ccc1C(=O)O,,"human, plasma","oral, 50 mg single, fasted",,1.58 µM
O=C(O)CNC(=O)c1c(O)c2ccccc2n(OCC2CC2)c1=O,LC-MS/MS,"human, blood","oral, 100 mg multiple doses",,1.02 ± 0.414 µg/mL
NC(=O)N1CCC(CC(=O)N2CCC([C@H]3c4ncc(Br)cc4CCc4cc(Cl)cc(Br)c43)CC2)CC1,,"human, plasma","oral, 150 mg twice daily, cycle 1 day 15, added: gemcitabine 750 mg/m2",,0.779 µg/mL
Cc1nc(-c2ccc(OCC(C)C)c(C#N)c2)sc1C(=O)O,,"human, plasma","oral, 40 mg, added: verinurad 2.5 mg",,0.626 µg/mL
O=C(/C=C/c1cccc(S(=O)(=O)Nc2ccccc2)c1)NO[C@@H]1O[C@H](C(=O)O)[C@@H](O)[C@H](O)[C@H]1O,,"human moderate liver dysfunction, plasma","intravenous, 400 mg/m^2, 30 min infusion, cycle 1 day -7, added: belinostat 400 mg/m^2 iv",,67.2 µg/mL
Cc1cc(-c2nnc(N)nc2-c2ccc(F)cc2)cc(Cl)n1,,"human patients, plasma","oral, 100 mg nanosuspension, single dose, arithmetic mean",,0.654 µg/mL
CN(C)[C@@H](CCOc1cccc2ccccc12)c1ccccc1,,"healthy male humans, plasma","oral, 60 mg, added: udenafil 200 mg",,0.368 ± 0.122 µg/mL
CCCCCCCCCCCCCCC[C@H](O)[C@@H](N)CO,,"human, phase I, plasma","intravenous, 750 mg/m^2, day 1, monotherapy",,26.8 µM
COc1ccc2nc([S@@+]([O-])Cc3ncc(C)c(OC)c3C)[nH]c2c1,,"human, CYP2C19 ultrarapid metabolizers, plasma","oral, 40 mg/day, day 1",,7.75 ± 3.01 µg/mL
CCOc1ccc(Cc2cc([C@@H]3S[C@H](CO)[C@@H](O)[C@H](O)[C@H]3O)c(OC)cc2C)cc1,,"human, plasma","oral, 10 mg/day, day 7, multiple dose before breakfast",,0.475 ± 0.111 µg/mL
CC#CC(=O)NCCCC(=O)c1nc(-c2ccc(C(=O)Nc3ccccn3)cc2)c2c(N)nccn12,,"human, healthy control, plasma","oral, 50 mg acalabrutinib, single, total, geometric mean",,0.167 µg/mL
CC(C)n1nc(-c2ccc3oc(N)nc3c2)c2c(N)ncnc21,,"human, plasma","oral, 20 mg once weekly, cycle 1 day 1",,0.296 µg/mL
CC1(COc2ccc3c(c2)ncn3-c2ccc3cccc(N4CCC(N)CC4)c3n2)COC1,,human,"oral, 100 mg/m2, first dose, crushed in applesauce",baseline: whole tablets,no effect
CNCc1ccc(-c2[nH]c3cc(F)cc4c3c2CCNC4=O)cc1,,"human cancer patients, plasma","intravenous, 4 mg/m2, day 1, added: temozolomide 100",,0.134 µg/mL
Cc1nc2cccc(N)c2c(=O)n1C1CCC(=O)NC1=O (stereo not drawn),,"healthy adult human, plasma","oral, 3 mg, geometric mean, added: rifampin 600 mg once daily",,0.066 µg/mL
COC(=O)c1ccc2c(c1)NC(=O)/C2=C(\Nc1ccc(N(C)C(=O)CN2CCN(C)CC2)cc1)c1ccccc1,,"human, hepatic impairment Child-Pugh B, plasma","oral, 100 mg single dose, fed, adjusted geometric mean",,0.0594 µg/mL
CON(C)C(=O)N1N=C(c2cc(F)ccc2F)S[C@@]1(CCCN)c1ccccc1,,human,"intravenous, 1.5 mg/m^2, cycle 1 day 3, geometric mean",,0.0798 µg/mL
O=C(NC[C@H](O)CO)c1ccncc1Nc1ccc(I)cc1F,,human,"oral, 60 mg, single dose alone",,0.332 µg/mL
O=CC[C@@H](O)[C@H](O)[C@H](O)CO,HPLC-fluorescence,"human patients, plasma","oral, 60 mg/kg/day, cycle 1",,744 ± 289 µM
O=C(c1cccnc1-c1ccncc1)N1CCC(O)(Cc2ccccc2)CC1,,"healthy human, plasma","oral, 100 mg once daily, day 14, arithmetic mean",,0.481 µg/mL
COc1cccc(-c2ccc(NC(=O)C3=C(C(=O)O)CCC3)c(F)c2)c1,,"healthy male humans, plasma","oral, 30 mg once daily, day 13, geometric mean",,6.54 µg/mL

# Repeated from above:
SMILES,test,system,conditions,scale,Cmax
O=C(O)CNC(=O)c1c(O)c2ccccc2n(OCC2CC2)c1=O,LC-MS/MS,"human, blood","oral, 100 mg multiple doses",,1.02 ± 0.414 µg/mL
NC(=O)N1CCC(CC(=O)N2CCC([C@H]3c4ncc(Br)cc4CCc4cc(Cl)cc(Br)c43)CC2)CC1,,"human, plasma","oral, 150 mg twice daily, cycle 1 day 15, added: gemcitabine 750 mg/m2",,0.779 µg/mL
Cc1nc(-c2ccc(OCC(C)C)c(C#N)c2)sc1C(=O)O,,"human, plasma","oral, 40 mg, added: verinurad 2.5 mg",,0.626 µg/mL
O=C(/C=C/c1cccc(S(=O)(=O)Nc2ccccc2)c1)NO[C@@H]1O[C@H](C(=O)O)[C@@H](O)[C@H](O)[C@H]1O,,"human moderate liver dysfunction, plasma","intravenous, 400 mg/m^2, 30 min infusion, cycle 1 day -7, added: belinostat 400 mg/m^2 iv",,67.2 µg/mL
Cc1cc(-c2nnc(N)nc2-c2ccc(F)cc2)cc(Cl)n1,,"human patients, plasma","oral, 100 mg nanosuspension, single dose, arithmetic mean",,0.654 µg/mL
